Published values gathered from unrelated publications.
Lines come from different studies, so protocols differ. ± gives the spread as reported.
UniProt Q15418, sequence (whole entry, looked up): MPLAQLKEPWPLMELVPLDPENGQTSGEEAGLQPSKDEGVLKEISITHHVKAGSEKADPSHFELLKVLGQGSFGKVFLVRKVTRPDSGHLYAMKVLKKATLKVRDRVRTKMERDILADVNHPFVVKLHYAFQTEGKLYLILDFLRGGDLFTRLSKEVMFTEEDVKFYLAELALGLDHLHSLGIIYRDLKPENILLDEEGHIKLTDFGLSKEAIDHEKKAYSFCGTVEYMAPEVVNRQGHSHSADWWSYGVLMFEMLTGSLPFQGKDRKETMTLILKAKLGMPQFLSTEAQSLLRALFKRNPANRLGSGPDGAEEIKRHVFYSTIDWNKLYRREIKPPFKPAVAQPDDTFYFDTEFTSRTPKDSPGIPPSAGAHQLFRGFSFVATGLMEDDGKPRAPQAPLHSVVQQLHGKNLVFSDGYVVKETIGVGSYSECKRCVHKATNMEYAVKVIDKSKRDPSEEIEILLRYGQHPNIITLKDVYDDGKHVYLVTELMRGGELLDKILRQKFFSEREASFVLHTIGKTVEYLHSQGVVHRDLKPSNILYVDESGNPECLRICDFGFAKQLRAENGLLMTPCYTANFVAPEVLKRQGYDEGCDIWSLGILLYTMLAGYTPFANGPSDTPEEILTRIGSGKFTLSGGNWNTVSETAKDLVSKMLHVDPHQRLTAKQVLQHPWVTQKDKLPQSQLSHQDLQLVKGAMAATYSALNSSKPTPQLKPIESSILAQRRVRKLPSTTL
UniProt Q07912, sequence (whole entry, looked up): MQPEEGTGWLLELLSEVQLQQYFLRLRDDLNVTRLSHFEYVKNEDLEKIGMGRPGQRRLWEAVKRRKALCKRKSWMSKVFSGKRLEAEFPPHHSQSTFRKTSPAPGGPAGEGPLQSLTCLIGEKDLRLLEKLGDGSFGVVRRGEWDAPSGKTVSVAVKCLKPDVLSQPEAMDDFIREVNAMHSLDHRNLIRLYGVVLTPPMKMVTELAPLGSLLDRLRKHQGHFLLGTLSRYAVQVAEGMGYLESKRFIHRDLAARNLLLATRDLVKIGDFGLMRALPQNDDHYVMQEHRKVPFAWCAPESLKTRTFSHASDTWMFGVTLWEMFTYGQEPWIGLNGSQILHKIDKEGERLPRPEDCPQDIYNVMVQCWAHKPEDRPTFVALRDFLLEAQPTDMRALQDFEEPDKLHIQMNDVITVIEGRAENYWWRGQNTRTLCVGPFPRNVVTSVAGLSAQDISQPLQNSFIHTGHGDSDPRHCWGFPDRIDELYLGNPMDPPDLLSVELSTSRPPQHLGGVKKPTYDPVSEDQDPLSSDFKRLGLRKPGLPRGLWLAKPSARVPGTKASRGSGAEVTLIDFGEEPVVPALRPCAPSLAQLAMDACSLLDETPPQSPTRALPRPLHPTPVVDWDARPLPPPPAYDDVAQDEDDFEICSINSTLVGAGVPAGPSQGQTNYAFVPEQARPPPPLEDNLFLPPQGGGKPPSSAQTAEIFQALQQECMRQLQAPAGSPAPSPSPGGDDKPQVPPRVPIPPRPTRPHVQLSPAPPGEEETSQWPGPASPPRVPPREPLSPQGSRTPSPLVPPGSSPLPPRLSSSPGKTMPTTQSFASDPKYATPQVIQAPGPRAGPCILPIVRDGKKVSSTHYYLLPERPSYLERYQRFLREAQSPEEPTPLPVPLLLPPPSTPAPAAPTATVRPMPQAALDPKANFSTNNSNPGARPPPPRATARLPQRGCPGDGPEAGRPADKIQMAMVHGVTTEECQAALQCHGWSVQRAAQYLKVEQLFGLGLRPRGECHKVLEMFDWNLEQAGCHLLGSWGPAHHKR

Compound | tested on | test | test system | conditions | scale | measurement | value
CC(=O)NCCCC[C@@H]1NC(=O)[C@H](Cc2c[nH]c3c(C)cccc23)NC(=O)[C@H]([C@@H](C)O)NC(=O)[C@H](CC(N)=O)NC(=O)[C@@H](NC(C)=O)C(C)(C)SSC(C)(C)[C@@H](C(=O)N[C@@H](Cc2ccc(OCCN)cc2)C(=O)N[C@@H](Cc2ccc3ccccc3c2)C(=O)NC2(C(=O)N[C@@H](CCC(=O)O)C(=O)N[C@@H](CC(N)=O)C(=O)N[C@@H](Cc3cccnc3)C(=O)N(C)CC(N)=O)CCOCC2)NC1=O |  | equilibrium dialysis | human, plasma | 0.01 µM |  | plasma protein binding | 55.2 ± 0.6%
CN1Cc2cc(Cl)ccc2-n2c(nnc2C2CCN(c3cccc(F)n3)CC2)C1 |  |  | male Sprague-Dawley rat, plasma | intravenous, 0.03 mg/kg, 5 min |  | concentration | 15 ng/mL
CC[C@H](C)[C@H](NC(=O)[C@H](CCCCN)NC(=O)CNC(=O)[C@H](CC(C)C)NC(=O)[C@H](Cc1ccccc1)NC(=O)[C@H](CCCCN)NC(=O)[C@H](CO)NC(=O)[C@H](Cc1ccccc1)NC(=O)[C@H](Cc1c[nH]c2ccccc12)NC(=O)[C@H](CCC(N)=O)NC(=O)[C@@H](NC(=O)[C@H](Cc1ccccc1)NC(=O)CCCCCNC(=O)CN1CCN(CC(=O)O)CCN(CC(=O)O)CCN(CC(=O)O)CC1)C(C)C)C(=O)N[C@@H](CCC(=O)O)C(=O)N1CCC[C@H]1C(=O)N[C@@H](CC(=O)O)C(=O)N[C@H](C(=O)N[C@@H](CO)C(=O)N[C@@H](CCC(N)=O)C(=O)N[C@H](C(=O)N[C@@H](CCC(N)=O)C(=O)N[C@@H](CC(=O)O)C(=O)N1CCC[C@H]1C(=O)N[C@@H](CC(N)=O)C(=O)N[C@@H](CC(=O)O)C(=O)N[C@@H](CCC(N)=O)C(=O)N[C@@H](Cc1ccc(O)cc1)C(=O)N[C@@H](CCC(=O)O)C(=O)N1CCC[C@H]1C(=O)N[C@@H](Cc1ccccc1)C(=O)O)C(C)C)C(C)C [copper-64 labelled] |  |  | C57BL/6 mice, male, naive, skeletal muscle | 24 h |  | tissue uptake | 0.67 ± 0.06 %ID/g
CN(C)[C@H]1C[C@@]23CC[C@@]4(O2)C(=CC[C@]2(C)[C@@H](c5ccc6ccncc6c5)CC[C@H]24)C=C3[C@@H](O)[C@@H]1O | Activated CDC42 kinase 1 (TNK2, Homo sapiens, UniProt Q07912) | ATP probe labelling, inhibitor, KiNativ profiling |  | 0.1 µM |  | inhibition | -10.1%
CC[C@H](C)[C@H](NC(=O)[C@H](CO)NC(=O)[C@H](Cc1ccc(O)cc1)NC(=O)[C@H](Cc1ccc(O)cc1)NC(=O)[C@H](CC(N)=O)NC(=O)CNC(=O)[C@H](CO)NC(=O)[C@H](Cc1ccc(O)cc1)NC(=O)[C@H](CO)NC(=O)[C@H](CO)NC(=O)[C@H](CC(N)=O)NC(=O)COCCOCCNC(=O)CN1CCN(CC(=O)O)CCN(CC(=O)O)CCN(CC(=O)O)CC1)C(=O)N[C@@H](CC(C)C)C(N)=O [copper-64 labelled] |  | dynamic PET | tamoxifen-induced PDAC mouse model, pancreas | 0.6 min, CLDN4-expressing tumours |  | maximum pancreas uptake | 17.3 %IA/cc
N#[11C]c1ccc(-c2csc(NN=C3CCCC3)n2)cc1 |  |  | C57BL/6 mice, male, brain | intravenous, 3 MBq, 1 min |  | radioactivity uptake | 4.43 %ID/g
COc1ccccc1-c1n[nH]c2nc(NC3CCN(C(=O)Cc4ccc(F)cc4F)CC3)ncc12 |  | bead binding, competition bead pull-down, refers to: LINJ.31.1230 | Leishmania donovani extract | 10 µM | reference: vehicle | relative abundance | 0.93
CC(C)C[C@H](NC(=O)[C@H](C)NC(=O)[C@H](CCCCN)NC(=O)CCNC(=S)Nc1ccc2c(c1)C1(OC2=O)c2ccc(O)cc2Oc2cc(O)ccc21)C(=O)N[C@@H](CCC(=O)O)C(=O)N[C@H](C(=O)N[C@@H](CC(C)C)C(=O)N[C@@H](CCCNC(=N)N)C(=O)N[C@@]1(C)CCCC=CCCC[C@@](C)(C(=O)N[C@H](C(=O)N[C@@H](CCC(N)=O)C(=O)N[C@@H](CCCNC(=N)N)C(=O)N[C@@H](CC(N)=O)C(=O)N[C@@H](Cc2c[nH]cn2)C(=O)N[C@@H](CCC(=O)O)C(=O)N[C@H](C(=O)N[C@@H](C)C(=O)N[C@@H](Cc2ccccc2)C(N)=O)[C@@H](C)O)C(C)C)NC(=O)[C@H](CC(=O)O)NC(=O)CNC(=O)[C@H](C(C)C)NC1=O)[C@@H](C)O |  | circular dichroism | potassium phosphate buffer | 20 µM, pH 7.5 |  | α-helicity | 62%
CCOc1ccccc1-n1c(CN2CCNCC2)nc2ccccc2c1=O |  |  | C57BL/6 mouse, male, plasma | intraperitoneal, 3 mg/kg |  | half-life | 2.11 h
CCCCC[C@H]1C(=O)N(C)[C@H](C)C(=O)N(C)[C@@H](CCCCC)C(=O)N(C)[C@H](C)C(=O)N(C)[C@@H](CCCCC)C(=O)N(C)[C@H](C)C(=O)N(C)[C@@H](CCCCC)C(=O)N(C)[C@H](C)C(=O)N1C |  | PAMPA, HPLC-UV |  | 500 µM, pH 7.4 |  | log Papp | -5.55 ± 0.06
CS(C)(=O)=Nc1ccc(-c2ccc(-c3nc4cc(O[C@@H]5CO[C@H]6[C@@H]5OC[C@H]6O)[nH]c4cc3F)cc2)cc1 | Ribosomal protein S6 kinase alpha-1 (RPS6KA1, Homo sapiens, UniProt Q15418) | enzyme activity, inhibitor |  | 10 µM |  | inhibition | 2%
C[C@H](NCc1ccc(-c2ccc(C(F)(F)F)cc2)cc1)C(N)=O |  | metabolic stability | mouse, liver microsomes | 1 µM, 30 min, pH 7.4 |  | compound remaining | 66%
O=C1NC2(CC2)COc2ncc(F)cc2[C@H]2COCCN2c2ccn3ncc1c3n2 |  |  | Sprague-Dawley rat, female, blood | oral, 5 mg/kg/day, 4 weeks, end of recovery, subacute toxicity |  | monocyte percentage | 1.3 ± 0.4%
CSCC[C@H](N)C(=O)N[C@@H](C)C(=O)N[C@@H](CCCNC(=N)N)C(=O)N[C@@H](CCCNC(=N)N)C(=O)N[C@@H](CC(=O)O)C(=O)N[C@@H](CCCCN)C(=O)N[C@H](C(=O)N[C@@H](CC(=O)O)C(=O)N[C@@H](Cc1ccccc1)C(=O)N[C@@H](C)C(=O)N[C@@H](CCCNC(=N)N)C(=O)N[C@@H](CCCNC(=N)N)C(=O)N[C@@H](CCCNC(=N)N)C(=O)N[C@@H](CCCNC(=N)N)C(=O)NCCCCCC(=O)NCCCCC(NC(=O)CCCCCNC(=O)[C@H](CCCNC(=N)N)NC(=O)[C@H](CCCNC(=N)N)NC(=O)[C@H](CCCNC(=N)N)NC(=O)[C@H](CCCNC(=N)N)NC(=O)[C@H](C)NC(=O)[C@H](Cc1ccccc1)NC(=O)[C@H](CC(=O)O)NC(=O)[C@@H](NC(=O)[C@H](CCCCN)NC(=O)[C@H](CC(=O)O)NC(=O)[C@H](CCCNC(=N)N)NC(=O)[C@H](CCCNC(=N)N)NC(=O)[C@H](C)NC(=O)[C@@H](N)CCSC)[C@@H](C)O)C(=O)NCCCCC(NC(=O)C(CCCCNC(=O)CCCCCNC(=O)[C@H](CCCNC(=N)N)NC(=O)[C@H](CCCNC(=N)N)NC(=O)[C@H](CCCNC(=N)N)NC(=O)[C@H](CCCNC(=N)N)NC(=O)[C@H](C)NC(=O)[C@H](Cc1ccccc1)NC(=O)[C@H](CC(=O)O)NC(=O)[C@@H](NC(=O)[C@H](CCCCN)NC(=O)[C@H](CC(=O)O)NC(=O)[C@H](CCCNC(=N)N)NC(=O)[C@H](CCCNC(=N)N)NC(=O)[C@H](C)NC(=O)[C@@H](N)CCSC)[C@@H](C)O)NC(=O)CCCCCNC(=O)[C@H](CCCNC(=N)N)NC(=O)[C@H](CCCNC(=N)N)NC(=O)[C@H](CCCNC(=N)N)NC(=O)[C@H](CCCNC(=N)N)NC(=O)[C@H](C)NC(=O)[C@H](Cc1ccccc1)NC(=O)[C@H](CC(=O)O)NC(=O)[C@@H](NC(=O)[C@H](CCCCN)NC(=O)[C@H](CC(=O)O)NC(=O)[C@H](CCCNC(=N)N)NC(=O)[C@H](CCCNC(=N)N)NC(=O)[C@H](C)NC(=O)[C@@H](N)CCSC)[C@@H](C)O)C(N)=O)[C@@H](C)O (stereo partly shown) |  |  | C57BL/6 mouse female, lungs | dose not given, 6 h | reference: total | mean tissue distribution | 1.53%
Cc1ccccc1-c1ccc(-c2nc(-c3ccc(CN(C)CCCC(=O)O)c([18F])c3)no2)cc1C(F)(F)F |  |  | rat, heart | 2 h |  | tracer uptake | 0.31 %ID/g
CC(CCC(=O)NCC(=O)O)C1CCC2C3C(O)CC4CC(OC5OC(C(=O)O)C(O)C(O)C5O)CCC4(C)C3CCC12C (stereo not shown) |  |  | men, T/C genotype, plasma | dose not given, geometric mean |  | glucuronide to parent ratio | 0.158
CC(C)(C)C(=O)OCOP(=O)(OCOC(=O)C(C)(C)C)C1CCCN(O)C1=O (stereo not shown) | NCI-H226 |  |  |  |  | log GI50 | -6 log M
COc1ccccc1-c1n[nH]c2nc(N[C@H]3CC[C@H](NS(=O)(=O)CC(C)C)CC3)ncc12 |  | bead binding, competition bead pull-down, refers to: LINJ.36.4680 | Leishmania donovani extract | 10 µM | reference: vehicle | relative abundance | 0.47
CN[C@H](CC(C)C)C(=O)N[C@H]1C(=O)N[C@@H](CC(N)=O)C(=O)N[C@H]2CN[C@H]3C(=O)N[C@H](C(=O)N[C@H](C(=O)NCCCNC(=N)N)c4cc(O)cc(O)c4-c4cc3ccc4O)[C@H](O)c3ccc(c(Cl)c3)Oc3cc2cc(c3O[C@@H]2O[C@H](CO)[C@@H](O)[C@H](O)[C@H]2O[C@H]2C[C@](C)(NCc3ccc(-c4ccc(Cl)cc4)cc3)[C@H](O)[C@H](C)O2)Oc2ccc(cc2Cl)[C@H]1O |  |  | mouse | intravenous, 10 mg/kg |  | half-life | 4.7 h

Some of these lines once more:
Compound | tested on | test | test system | conditions | scale | measurement | value
CN1Cc2cc(Cl)ccc2-n2c(nnc2C2CCN(c3cccc(F)n3)CC2)C1 |  |  | male Sprague-Dawley rat, plasma | intravenous, 0.03 mg/kg, 5 min |  | concentration | 15 ng/mL
CC[C@H](C)[C@H](NC(=O)[C@H](CCCCN)NC(=O)CNC(=O)[C@H](CC(C)C)NC(=O)[C@H](Cc1ccccc1)NC(=O)[C@H](CCCCN)NC(=O)[C@H](CO)NC(=O)[C@H](Cc1ccccc1)NC(=O)[C@H](Cc1c[nH]c2ccccc12)NC(=O)[C@H](CCC(N)=O)NC(=O)[C@@H](NC(=O)[C@H](Cc1ccccc1)NC(=O)CCCCCNC(=O)CN1CCN(CC(=O)O)CCN(CC(=O)O)CCN(CC(=O)O)CC1)C(C)C)C(=O)N[C@@H](CCC(=O)O)C(=O)N1CCC[C@H]1C(=O)N[C@@H](CC(=O)O)C(=O)N[C@H](C(=O)N[C@@H](CO)C(=O)N[C@@H](CCC(N)=O)C(=O)N[C@H](C(=O)N[C@@H](CCC(N)=O)C(=O)N[C@@H](CC(=O)O)C(=O)N1CCC[C@H]1C(=O)N[C@@H](CC(N)=O)C(=O)N[C@@H](CC(=O)O)C(=O)N[C@@H](CCC(N)=O)C(=O)N[C@@H](Cc1ccc(O)cc1)C(=O)N[C@@H](CCC(=O)O)C(=O)N1CCC[C@H]1C(=O)N[C@@H](Cc1ccccc1)C(=O)O)C(C)C)C(C)C [copper-64 labelled] |  |  | C57BL/6 mice, male, naive, skeletal muscle | 24 h |  | tissue uptake | 0.67 ± 0.06 %ID/g
